Published values collected from several papers.
Every numbered part comes from another study and shows a few of its results, in no order. Positions count from the first letter of the parent shown.

Study 1 — technique: RNA Bind-n-Seq; molecule type: RNA; sample: in vitro; concentration: 365 nM; baseline: no-protein control; direction: higher = stronger binding
Target: RNA binding protein fox-1 homolog 2, RRM domain, GST-SBP tag (RBFOX2, Homo sapiens, UniProt O43251-10, residues 100-194)
Notes: natural RNA segment, single round, ends assumed
Construct (chain): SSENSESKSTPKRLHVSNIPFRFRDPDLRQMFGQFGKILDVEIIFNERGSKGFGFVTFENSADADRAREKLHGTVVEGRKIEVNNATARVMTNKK
Oligonucleotide | RBNS enrichment (R)
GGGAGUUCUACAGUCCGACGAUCAUAACUAUCCUCCUCAUAUAAUACUAUUCUUUUUGACACCAUUUGAAGGAACCAAUAUUUGGACCUUAUUUUGAGGUUGUCUGUCUCGAAGAAAAAGAAAAUAAAAUGUAUGGAAUUCUCGGGUGCCAA | 0.633
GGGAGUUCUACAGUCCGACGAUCUGGGGGAAAUUUUCUAUAAAAGAGUGAACAAUUAUAUUUAUAUUUCAAGUUAAAGUAGUUUGGAUACUUUAGUGGUUUUGUUGUUGUUUCUUCUUUUUCCUUUUUUUUUUUGGAAUUCUCGGGUGCCAA | 1.16
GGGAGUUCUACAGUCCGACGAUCUUUGAUAAGCCUUCUGCUCACAUUUUUGUGAAUGUCUGAAGUAUAUAGUUUGUGUAUAUUGACAGAGCUCUUUUAUAACUAAAGCAAAUUUAAUUUUUUUGUACUAGAAAUGGAAUUCUCGGGUGCCAA | 1.07
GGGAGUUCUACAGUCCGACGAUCUGUCCUUGAUCUCCUCUUGUUCCCCUUUCUGCUUGUAGCAGCCUCACUUGGCAAAUGUAACGGCUCAGGUACCCUGGCUUCCUUCCCAGAAACAAGCCUUGCCUGUGCAUUGGAAUUCUCGGGUGCCAA | 1.78
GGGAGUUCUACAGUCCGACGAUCGCUUCAUAAUUUCCAUGAUACAAAGAUCUUUUUUCAGGUGGAUUUUUACCUUUGUUCCUUUUGCUCUGAUAGACAAAAUCAGUUUAGGACUAUUAAAGAAUGUUUUGGAAUGGAAUUCUCGGGUGCCAA | 0.519
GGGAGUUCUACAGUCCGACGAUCGUUUAUGAGCAUCUGGAAGAGCAAAUUCUAACUCCUGUCCAAGUGACAGACUGGAAUAUUUCUUAGGCAAUGCAAGGCAAACAUUCACAUGAUCCACCGUUUUAACACCUUGGAAUUCUCGGGUGCCAA | 0.224
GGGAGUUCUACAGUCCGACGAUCAAGUACCAGGUCAUGUCCAUCCCUUGGUACAUAUAUGCAUUUGCUUUUAAACCAUUUCUUUUGUUUAAAUAAAUAAAUAAGUAAAUAAAGCUAGUUCUAUUGAAAUGCAAUGGAAUUCUCGGGUGCCAA | 0.776
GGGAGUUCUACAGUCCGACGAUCAAAAAGUUGAUAUUGUGUUUUGUGGGACUGUAUAUGUUGUCAUUUUUAAAGGGGGGAAAUAACAUCCAAGUCUGAUUAGAACCGCCCAUCAGUUGUUCUUGGAAGUUUUUUGGAAUUCUCGGGUGCCAA | 1.64
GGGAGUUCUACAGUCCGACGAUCCUCUGAGAUCUUGGGUGACUUCUCAUCACUCUGGACCUCCAUUCCUGUGAAGUGACAGGUGUGGACCCUGAGGGUGCGGUGGUGAGCACACUGUCUCCUGCUGGCAUUCAUGGAAUUCUCGGGUGCCAA | 0.284
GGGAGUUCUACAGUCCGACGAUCCCAUAGAGAGUUUGUAGGUAUUUCCAGGGAUGGAGAAGAUCUAAGCAUUUGACUUCCCCAUCAGUACAUUUGUUCAUUUGCUUUCUCUGUGAAACGCCAUGAUUGUCUAAUGGAAUUCUCGGGUGCCAA | 1.98
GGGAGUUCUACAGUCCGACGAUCUAAUUGAAUGCAUACCUAAUUGUAAAAUUUUUUUAUUUACAACAUUGGAAAUUCAGAAGUUAAUGUUUUUUUGUAAGCACAAAAGAAGUAUUAUAGAAAUUUAUCCUAGCUGGAAUUCUCGGGUGCCAA | 0.54
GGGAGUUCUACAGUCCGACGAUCUAAUAGAGUGGUAUGACAUGGCACUAAAAAUAUAAAUUUUUGUUGUAAGUCAGGAUUGGAGUAAGCUGGAAAAGUAUGUUUAGGCAAAUCUUGGAGAAAACCAACCAUAAUGGAAUUCUCGGGUGCCAA | 1.17

Study 2 — target: CCNF, cyclin fold, Cln2 fusion (human); technique: yeast growth competition, sequencing; sample: yeast; notes: strong parent motif; baseline: not given; direction: higher = stronger binding
Starting sequence: CDKN1B docking peptide (human); PSACRNLFGPVDH
Substitution | normalised enrichment score
C4W | 2.09
A3W | 4.57
F8C | -0.0717
C4L | 2.06
G9A | 3.97
R5A L7A | -0.215
D12A | 7.76
P1W | 8.09
G9W | 4.46
C4A | 6.16
N6Y | 3.1
P10E | 6.72
S2C | 5.04
P10N | 6.67
N6R | 7.99
P10M | 7.08
A3N | 0.687

Study 3 — technique: universal PBM; molecule type: double-stranded DNA, one strand shown; sample: in vitro; concentration: 600 nM; direction: higher = stronger binding
Target: Sal-like protein 4, full length isoform A (SALL4, Homo sapiens, UniProt Q9UJQ4, residues 1-1053)
Sequence of UniProt Q9UJQ4 (whole entry, looked up): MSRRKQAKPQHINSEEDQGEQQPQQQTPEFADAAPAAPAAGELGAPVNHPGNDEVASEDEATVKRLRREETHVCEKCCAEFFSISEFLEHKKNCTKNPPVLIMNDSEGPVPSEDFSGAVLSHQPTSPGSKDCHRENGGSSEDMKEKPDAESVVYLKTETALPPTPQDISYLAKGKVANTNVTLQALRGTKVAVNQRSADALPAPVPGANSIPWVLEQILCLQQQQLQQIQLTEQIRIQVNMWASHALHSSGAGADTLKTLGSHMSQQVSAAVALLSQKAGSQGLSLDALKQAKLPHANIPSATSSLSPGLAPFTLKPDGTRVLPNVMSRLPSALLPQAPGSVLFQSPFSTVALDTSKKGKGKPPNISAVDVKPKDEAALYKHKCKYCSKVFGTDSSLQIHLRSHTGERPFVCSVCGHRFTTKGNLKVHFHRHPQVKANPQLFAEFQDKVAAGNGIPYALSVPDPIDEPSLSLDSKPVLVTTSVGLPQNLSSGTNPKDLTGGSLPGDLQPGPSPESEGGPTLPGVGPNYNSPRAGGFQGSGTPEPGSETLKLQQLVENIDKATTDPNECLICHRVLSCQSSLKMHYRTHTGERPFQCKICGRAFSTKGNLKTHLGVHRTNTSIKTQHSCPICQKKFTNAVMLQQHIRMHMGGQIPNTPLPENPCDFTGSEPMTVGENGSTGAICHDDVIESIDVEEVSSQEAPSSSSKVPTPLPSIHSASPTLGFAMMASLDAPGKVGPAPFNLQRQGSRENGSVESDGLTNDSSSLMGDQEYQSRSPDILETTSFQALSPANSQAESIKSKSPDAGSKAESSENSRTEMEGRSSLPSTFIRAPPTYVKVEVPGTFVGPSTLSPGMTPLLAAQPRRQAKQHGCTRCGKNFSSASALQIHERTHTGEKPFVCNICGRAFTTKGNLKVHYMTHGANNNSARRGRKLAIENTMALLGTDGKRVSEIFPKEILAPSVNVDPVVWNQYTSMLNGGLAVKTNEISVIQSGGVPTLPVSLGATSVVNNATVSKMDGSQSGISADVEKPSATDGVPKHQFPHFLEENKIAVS
Notes: 8-mer, flanks averaged, mean of replicates
Oligonucleotide | E-score
GACAGATA | 0.117
GCGTACGA | -0.0584
CGTCATAA | 0.295
AAGTGTGG | 0.00347
AGGAAACA | 0.0951
TGTGGTAA | 0.121
ACTCAATA | 0.322
CGGTCCGA | -0.302
CATTGGGC | -0.17
ATAACAAA | 0.346
GAAGTACC | -0.135
CTTCGACA | -0.0321
ACTCTGGA | 0.0866
ACATGCCA | 0.00645
CGTCTACC | -0.0998
AGACGTGA | 0.0335
GGTATTGA | 0.0484
GATCACGC | -0.164
CACCTGAA | 0.112
CCTGCTAC | 0.0268
GCATGTAA | 0.122
AAGTGAGG | -0.0417
CTATTGAA | 0.198

Study 4 — technique: DHFR PCA, dose-response; sample: yeast; notes: Hill fit, mean, not affinity; with: (+)-ABA, dose series; direction: lower = more sensitive
Target: ABI1, truncated, D143A, DHFR fusion (Arabidopsis thaliana, UniProt P49597)
Starting sequence: PYL1, truncated, DHFR fusion (Arabidopsis thaliana, UniProt Q8VZS8); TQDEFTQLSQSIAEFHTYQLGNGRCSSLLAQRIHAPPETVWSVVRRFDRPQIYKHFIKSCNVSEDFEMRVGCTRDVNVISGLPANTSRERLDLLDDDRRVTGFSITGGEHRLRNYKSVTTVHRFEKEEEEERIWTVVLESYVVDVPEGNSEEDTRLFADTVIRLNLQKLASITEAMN
Substitution | ABA EC50 [µM]
A170H | 351
E4R | 7.3
R90H | 18.6
L91M | 8.36
I12D | 205
N114K | 49.7
H34L | 3.25
E174K | 23
E4W | 2.18
Q51R | 369
E4I | 2.86
R32V | 2.52
L94Q | 94.8
R163G | 8.47
R132M | 1.95
I52S | 3.36
S27D | 5.04
R45A | 61.8

Further values, each from its own experiment
Molecule | target | assay | test system | setting | scale | quantity | value
PhoQ, residues 284 288 289 292 302 303 TYGVAM | PhoP, residues 12 14 15 18 19 LQHIR (Escherichia coli, UniProt P23836) | Sort-seq, measured: YFP reporter | E. coli | PhoQ-PhoP variant library, with: 10 µM Mg2+ | baseline: high Mg2+ state, higher = stronger signaling | fold induction | 12.3

Some of these lines once more (study 4):
Substitution | ABA EC50 [µM]
E4I | 2.86
Q51R | 369
I52S | 3.36
S27D | 5.04
E174K | 23
R163G | 8.47
L94Q | 94.8
I12D | 205
H34L | 3.25
